# Assay results from different studies.
# Parts stem from different laboratories: compare values within a part only. Changes are numbered by the printed parent chain.

# Set 1
# Target: POU domain, class 5, transcription factor 1, POU domain (Pou5f1, Mus musculus, UniProt P20263, residues 131-289)
# Chain of UniProt P20263 (131-289, looked up): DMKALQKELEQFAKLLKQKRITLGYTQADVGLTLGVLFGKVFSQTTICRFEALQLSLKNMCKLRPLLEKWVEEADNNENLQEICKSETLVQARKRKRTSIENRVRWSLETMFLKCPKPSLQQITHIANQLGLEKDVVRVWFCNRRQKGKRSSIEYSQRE
# Method: Spec-seq
# Molecule type: double-stranded DNA, one strand shown
# Sample: in vitro
# Tested at: not given
# Notes: whole probe, mean of replicates
# Relative to: not given
# Direction: lower = stronger binding
# Constant ends, left off below: GAGTCGTCTCGTCAGCAC … CCGTAGAGCACTCAGGTC
Sequence,relative binding energy [ln ratio]
ATGCCCTG,1
ATACAGAT,0.396
ATGTAGAT,-1.14
ATGCGCGA,0.344
ATGTATAT,-0.835
ATCAATAT,-0.44
ATTCCAAT,-0.088
ATATGTAT,-0.686
GGCGTAAT,0.576
ATGCGACT,0.237
ATGCCTAG,0.551
ATTATGAT,0.209
ATGCTCCC,0.693
ATGCGCTC,0.559
ATGGATAT,-0.302
GTAGTAAT,0.612

# Set 2
# Target: RNA binding protein fox-1 homolog 2, RRM domain, GST-SBP tag (RBFOX2, Homo sapiens, UniProt O43251-10, residues 100-194)
# Method: RNA Bind-n-Seq
# Molecule type: RNA
# Sample: in vitro
# Tested at: 365 nM
# Notes: natural RNA segment, single round, ends assumed
# Relative to: no-protein control
# Direction: higher = stronger binding
# Constant ends, left off below: GGGAGUUCUACAGUCCGACGAUC … UGGAAUUCUCGGGUGCCAA
# Construct (chain): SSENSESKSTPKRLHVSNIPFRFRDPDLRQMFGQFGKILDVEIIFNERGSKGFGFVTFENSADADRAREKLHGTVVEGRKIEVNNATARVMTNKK
Sequence,RBNS enrichment (R)
GGGUGACUGUGUGUGAUGUGCAGAGUCCUUGGACAGGAGUCGGGGGCUCCUCUGUCCCACUGCUGCUUCUUGAGUGGGUGGAGUGGUGCUUAGAGGAUCUCCGAGAGGUC,2.77
AUGUAUUCAUUAUAGUUACAAUAUCCAACUAAAAAGUACGCUAUCUAGAAGUAUACCGACCAAAAUCUAGUAUUGACAUGAUCUUGACAGGCUGGACCUGUGAGAUAUGG,0.361
UCCUGUCUCAGCCUCCCCAGUAGCUGAGAUUGCAGGCACAUGCCACCACGCCCAGCUAAUAUUUUGUAUUUUCAGUAGGGACGGGGUUACACCAUGUUGGCCAGGCUGGU,0.54
CUCCCCGGCUCUGUGCCGGGGCAGGCACCUGCUGGGGGUUCUGGUUUUUACUUUUUUAAUGUAAGUCUGAGUCUUUGUAAUUAUUGAAUUGUGAGAACAAUUUUGAACAA,0.397
UGGUCUGGCUGUACUGGCAACGCGGUGCUGGGCCCAUGUCUCAUACCUUGCCCUCAGCCUAUCCCUGAACUAAACAGGACCCACUGAGUCCCAGCCUCAGCAGGCUGCUU,0.22
GCUGCUGGUGAGGUUUGGAAGCAUCAGGCUCACGGGUGUUCAUGUGUGUUCGUGCGUGUGUGUGCGUACGUGUAUAUAACUGAAGUGUCUGUACGGAAUGCCCUUUGCUA,0.675
GCACCACCAAGCCAAGGGAACCUGUGUCCGGUAUUCGAUACUGCGACUUUCUGCCUGGAGUGUAUGACUGCACAUGACUCGGGGGUGGGGAAAGGGGUCGGCUGACCAUG,0.474
CAGGGCACCCCUCAAGGACUGCCCCCGAUAGCUCUACUGUUCCCUUGGCCACGAAGGUGCCCCCCUCCCAGAUGCCCUGGCCCUAGGCCUGACUCCGGCCAGGAGGGUCA,0.251
CAAGCUGAGGACCCAAAGUUGGACACAGAAAUGGUAGUGUUGGAAAGACAGACAGGCAAAGACGGCACACGUUGGGUCUGCUUCCAGUCCAUAGGCCACCAAUUCUCCUU,0.275
AGCUUUAGUUUAAACAAAAGUAUUGUAUACAGGAACUAUGUAUAGUGCAGGGGUUCUUUUCAGUUAGAAAAGGCAGGUUGCUUUAAUGUUAUUCUGACUCGCAUUGUUUG,0.419
GGUCCGUACUAUGCCCAGGUGUCAGCAGGAAACAAGGCCUUGCUCACAGGAGCACAGGCUGUACCACCACAAGGAGCCUCAGAGCGGCCAGUGAGGAAAGGGGAGAGAGC,0.379
GCCGCUCUUCUGUCAUCCCGCUCCUGCUGAAACACCUCCCAGGGGCUCCACCUGUUCAGGAGCUGAAGCCCAUGCUUUCCCACCAGCAUGUCACUCCCAGACCACCUCCC,0.826

# Set 3
# Target: Interferon regulatory factor 7, full length, phosphomimetic (IRF7, Homo sapiens, UniProt Q92985, residues 1-503, S471D/S472D/S475D/S476D/S477D/S483D/S484D/S487D)
# Method: protein-binding microarray
# Molecule type: double-stranded DNA, one strand shown
# Sample: in vitro
# Tested at: 2200 nM top
# Notes: 60-bp whole probe
# Together with: salmon DNA 0.4 mg/ml
# Relative to: random background probes
# Direction: higher = stronger binding
# Constant ends, left off below: GCCTAGCAC … GTCTTGATTCGCTTGACGCTGCTG
# Construct (chain): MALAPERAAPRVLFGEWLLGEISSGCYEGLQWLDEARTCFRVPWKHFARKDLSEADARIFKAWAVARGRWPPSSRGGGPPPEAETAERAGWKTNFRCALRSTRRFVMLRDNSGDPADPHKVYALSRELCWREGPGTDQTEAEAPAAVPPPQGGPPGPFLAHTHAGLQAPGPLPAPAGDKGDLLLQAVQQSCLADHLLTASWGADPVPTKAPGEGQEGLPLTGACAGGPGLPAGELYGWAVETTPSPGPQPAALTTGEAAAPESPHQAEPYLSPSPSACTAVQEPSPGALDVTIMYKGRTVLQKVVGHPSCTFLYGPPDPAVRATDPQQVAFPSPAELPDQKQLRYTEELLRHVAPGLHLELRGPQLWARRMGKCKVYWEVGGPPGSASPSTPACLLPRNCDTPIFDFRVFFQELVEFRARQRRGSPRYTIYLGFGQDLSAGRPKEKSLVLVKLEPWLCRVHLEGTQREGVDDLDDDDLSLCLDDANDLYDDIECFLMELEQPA
Sequence,fitted relative affinity [z-score]
GACGGTATCGGTATCGTGACGTGCTAG,0.567
TTCCAGCTGGTGACTAGCGAGTGCTAG,0.139
GTAAGCAAAAATGATTGGTTGTGCTAG,-0.546
TCAATTTTCAGTATTACACTGTGCTAG,2.25
TTGGATTCCAGTTTCGATTAGTGCTAG,6.99
GACGGGTTCCTTCTCCTGACGTGCTAG,0.927
TTAGGCCTCCTTTTCCTTTAGTGCTAG,1.58
TTAGACTTCGGGTTTCGATTAGTGCTA,2.55
TCAGGTTTCCAAATTGTACTGTGCTAG,1.6
TTAGGACTGGGGTGTCGGTTAGTGCTA,-0.534
GACGGTATTGACTTTCGGGACGTGCTA,2.97
GACGGTTTCTGGACTGGGGACGTGCTA,1.11
GTAGGACTGCTACTGCTTTAGTGCTAG,-0.0546
TTAAATATCGGGACTGGATTAGTGCTA,-0.536
GACGATTTCGTGACTGGAGACGTGCTA,0.762
TGGAAACTCGTATGTGACCTTGTGCTA,0.196
GACGGTATCCTTTTCCAGACGTGCTAG,1.27
GACGGTTTCGGTATAGGGACGTGCTAG,6.76

# Set 4
# Target: Sal-like protein 4, full length isoform B (SALL4, Homo sapiens, UniProt Q9UJQ4-2, residues 1-616)
# Method: universal PBM
# Molecule type: double-stranded DNA, one strand shown
# Sample: in vitro
# Tested at: not given
# Notes: 8-mer, flanks averaged, mean of replicates
# Direction: higher = stronger binding
Sequence,E-score
AACATCGG,-0.111
AGAACGGC,-0.176
ATCTACCG,0.0987
CCTCTAGC,-0.106
CGAATGTA,0.149
CCATAGCC,-0.121
CAATGAGC,-0.166
ATCTCTAG,0.0291
AGCGCAGA,-0.297
CGTAGTAA,0.127
TTACAAAA,0.241
CGCGAATA,0.103
CATACAAA,0.252
GACCGAGC,-0.393
GCTAGTCC,-0.198
AATTAGAA,0.206
ACTAGAAG,-0.0507
AGGAGCCT,-0.339
GTGAATTA,0.277
CGCCCAAA,-0.00626
GTCCCGCA,-0.223
ATGAAGGA,0.27
CAGAGGTC,-0.19
AAGCTGGA,-0.00156

# Set 5
# Target: CCNA1, cyclin fold, Cln2 fusion (human)
# Method: yeast growth competition, sequencing
# Sample: yeast
# Notes: weak parent motif
# Relative to: not given
# Direction: higher = stronger binding
# Parent: E2F7 docking peptide (human); SSAQRRLEIPSGG
Variant,normalised enrichment score
E8A,0.336
R6A,0.043
I9L,0.43
G13A,0.478
S11A,0.138
I9F,0.711
R5A L7A,0.127
R5K I9L,0.0925
S1A,0.345
L7A,0.244

# Set 6
# Target: ABI1, truncated, D143A, DHFR fusion (Arabidopsis thaliana)
# Method: DHFR PCA, deep sequencing
# Sample: yeast
# Notes: methotrexate growth selection, single substitutions
# Together with: (+)-ABA 17 µM
# Relative to: wild-type fitted maximum
# Direction: higher = stronger binding
# Parent: PYL1, truncated, DHFR fusion (Arabidopsis thaliana); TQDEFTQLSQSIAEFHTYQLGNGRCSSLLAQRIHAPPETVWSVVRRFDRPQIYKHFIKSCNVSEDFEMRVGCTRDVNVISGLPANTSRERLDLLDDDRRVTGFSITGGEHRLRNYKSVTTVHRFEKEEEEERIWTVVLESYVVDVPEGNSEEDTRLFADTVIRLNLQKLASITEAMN; partner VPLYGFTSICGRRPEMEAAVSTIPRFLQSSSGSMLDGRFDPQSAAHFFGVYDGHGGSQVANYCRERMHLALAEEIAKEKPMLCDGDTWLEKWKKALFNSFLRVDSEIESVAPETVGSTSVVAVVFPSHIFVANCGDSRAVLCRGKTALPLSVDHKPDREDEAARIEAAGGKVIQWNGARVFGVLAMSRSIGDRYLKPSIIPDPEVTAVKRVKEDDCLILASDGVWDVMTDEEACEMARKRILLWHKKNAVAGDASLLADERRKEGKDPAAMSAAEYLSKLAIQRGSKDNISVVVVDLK
Variant,relative binding score [%]
N149W,-1.7
I33Y,9.5
I172V,96.2
N85S,90.1
R155A,39.7
E152Q,77.6
K54N,-8.02
N22V,84.7
S63Q,89.1
R74Q,-12
N77T,92.9
W41M,-1.41
H16S,9.46
Y115H,21.3
W41R,7.14
E128T,92.7
D95L,41.3
Q167K,96.7
M176P,80.9
Q7T,85.8
V70A,68
E127L,83.1
S87V,25.7
I133M,89.3
Q167W,37.4
